Results pooled from the literature.
Partner: itself
B1: spo0J K252A/K259A (Bacillus subtilis, UniProt P26497); chain MAKGLGKGINALFNQVDLSEETVEEIKIADLRPNPYQPRKHFDDEALAELKESVLQHGILQPLIVRKSLKGYDIVAGERRFRAAKLAGLDTVPAIVRELSEALMREIALLENLQREDLSPLEEAQAYDSLLKHLDLTQEQLAKRLGKSRPHIANHLRLLTLPENIQQLIAEGTLSMGHGRTLLGLKNKNKLEPLVQKVIAEQLNVRQLEQLIQQLNQNVPRETKKKEPVKDAVLKERESYLQNYFGTTVNIARQKKKGAIEIEFFSNEDLDRILELLSERES
B2: VPH1/STV1 chimera 1-123 (Saccharomyces cerevisiae); sequence looked up; chain MAEKEEAIFRSAEMALVQFYIPQEISRDSAYTLGQLGLVQFRDLNSKVRAFQRTFVNEIRRLDNVERQYRYFYSLLKKHDIKLYEGDTDKYLDGSGELYVPPSGSVIDDYVRNASYLEERLIQLDESLDSLRSKLNDLLEQRQVIFECSKFIEVNPGIAGRATNPEIEQEERDVDEFRMTPDDISETLSDAFSFDDETPQDRGALGNDLTRNQSVEDLSFLEQGYQHRYMITGSIRRTKVDILNRILWRLLRGNLIFQNFPIEEPLLEGKEKVEKDCFIIFTHGETLLKKVKRVIDSLNGKIVSLNTRSSELVDTLNRQIDDLQRILDTTEQTLESELYAIAKELDSWFQDVTREKAIFEILNKSNYDTNRKILIAEGWIPRDELATLQARLGEMIARLGIDVPSIIQVLD
B3: TOP2 C180A/C731A/Q1135C (Saccharomyces cerevisiae, UniProt P06786); AlexaFluor 488/546 labels; sequence looked up; chain MSTEPVSASDKYQKISQLEHILKRPDTYIGSVETQEQLQWIYDEETDCMIEKNVTIVPGLFKIFDEILVNAADNKVRDPSMKRIDVNIHAEEHTIEVKNDGKGIPIEIHNKENIYIPEMIFGHLLTSSNYDDDEKKVTGGRNGYGAKLCNIFSTEFILETADLNVGQKYVQKWENNMSIAHPPKITSYKKGPSYTKVTFKPDLTRFGMKELDNDILGVMRRRVYDINGSVRDINVYLNGKSLKIRNFKNYVELYLKSLEKKRQLDNGEDGAAKSDIPTILYERINNRWEVAFAVSDISFQQISFVNSIATTMGGTHVNYITDQIVKKISEILKKKKKKSVKSFQIKNNMFIFINCLIENPAFTSQTKEQLTTRVKDFGSRCEIPLEYINKIMKTDLATRMFEIADANEENALKKSDGTRKSRITNYPKLEDANKAGTKEGYKCTLVLTEGDSALSLAVAGLAVVGRDYYGCYPLRGKMLNVREASADQILKNAEIQAIKKIMGLQHRKKYEDTKSLRYGHLMIMTDQDHDGSHIKGLIINFLESSFPGLLDIQGFLLEFITPIIKVSITKPTKNTIAFYNMPDYEKWREEESHKFTWKQKYYKGLGTSLAQEVREYFSNLDRHLKIFHSLQGNDKDYIDLAFSKKKADDRKEWLRQYEPGTVLDPTLKEIPISDFINKELILFSLADNIRSIPNVLDGFKPGQRKVLYGCFKKNLKSELKVAQLAPYVSEATAYHHGEQSLAQTIIGLAQNFVGSNNIYLLLPNGAFGTRATGGKDAAAARYIYTELNKLTRKIFHPADDPLYKYIQEDEKTVEPEWYLPILPMILVNGAEGIGTGWSTYIPPFNPLEIIKNIRHLMNDEELEQMHPWFRGWTGTIEEIEPLRYRMYGRIEQIGDNVLEITELPARTWTSTIKEYLLLGLSGNDKIKPWIKDMEEQHDDNIKFIITLSPEEMAKTRKIGFYERFKLISPISLMNMVAFDPHGKIKKYNSVNEILSEFYYVRLEYYQKRKDHMSERLQWEVEKYSFQVKFIKMIIEKELTVTNKPRNAIIQELENLGFPRFNKEGKPYYGSPNDEIAEQINDVKGATSDEEDEESSHEDTENVINGPEELYGTYEYLLGMRIWSLTKERYQKLLKCKQEKETELENLLKLSAKDIWNTDLKAFEVGYQEFLQRDAEARGGNVPNKGSKTKGKGKRKLVDDEDYDPSKKNKKSTARKGKKIKLEDKNFERILLEQKLVTKSKAPTKIKKEKTPSVSETKTEEEENAPSSTSSSSIFDIKKEDKDEGELSKISNKFKKISTIFDKMGSTSATSKENTPEQDDVATKKNQTTAKKTAVKPKLAKKPVRKQQKVVELSGESDLEILDSYTDREDSNKDEDDAIPQRSRRQRSSRAASVPKKSYVETLELSDDSFIEDDEEENQGSDVSFNEED
B4: Pnma1 (Mus musculus, UniProt Q8C1C8); sequence looked up; chain MAMTLLEDWCRGMDVNSQRALLVWGIPVNCDETEIEETLQAAMPQVSYRVLGRMFWREENAKAALLELTGAVDYSLIPREMPGKGGLWKVVFKPPTSDAVFLERLHLFLAREGWTVQDVARVLGFQNPAPAPGPEMPAEMLNYILDNVIQPLVESIWYKKLTLFSGKDIPGPGEETFDSWLEHSNEIIEEWQVSDIEKRRRLMESLRGPAADVIRILKTNNAAITTAECLKALEQVFGSVESSRDAQVRFLNTYQNPGEKLSSYVIRLEPLLQKVVDKGVIDKDNVNQARLEQVIAGANHSGALRRQLWLAGAEEGPAPNLFQLLVQIREEEAKKEEEEAEAALLQLGLEGHF
B5: ABCC1 P1120F (Homo sapiens, UniProt P33527); sequence looked up; chain MALRGFCSADGSDPLWDWNVTWNTSNPDFTKCFQNTVLVWVPCFYLWACFPFYFLYLSRHDRGYIQMTPLNKTKTALGFLLWIVCWADLFYSFWERSRGIFLAPVFLVSPTLLGITMLLATFLIQLERRKGVQSSGIMLTFWLVALVCALAILRSKIMTALKEDAQVDLFRDITFYVYFSLLLIQLVLSCFSDRSPLFSETIHDPNPCPESSASFLSRITFWWITGLIVRGYRQPLEGSDLWSLNKEDTSEQVVPVLVKNWKKECAKTRKQPVKVVYSSKDPAQPKESSKVDANEEVEALIVKSPQKEWNPSLFKVLYKTFGPYFLMSFFFKAIHDLMMFSGPQILKLLIKFVNDTKAPDWQGYFYTVLLFVTACLQTLVLHQYFHICFVSGMRIKTAVIGAVYRKALVITNSARKSSTVGEIVNLMSVDAQRFMDLATYINMIWSAPLQVILALYLLWLNLGPSVLAGVAVMVLMVPVNAVMAMKTKTYQVAHMKSKDNRIKLMNEILNGIKVLKLYAWELAFKDKVLAIRQEELKVLKKSAYLSAVGTFTWVCTPFLVALCTFAVYVTIDENNILDAQTAFVSLALFNILRFPLNILPMVISSIVQASVSLKRLRIFLSHEELEPDSIERRPVKDGGGTNSITVRNATFTWARSDPPTLNGITFSIPEGALVAVVGQVGCGKSSLLSALLAEMDKVEGHVAIKGSVAYVPQQAWIQNDSLRENILFGCQLEEPYYRSVIQACALLPDLEILPSGDRTEIGEKGVNLSGGQKQRVSLARAVYSNADIYLFDDPLSAVDAHVGKHIFENVIGPKGMLKNKTRILVTHSMSYLPQVDVIIVMSGGKISEMGSYQELLARDGAFAEFLRTYASTEQEQDAEENGVTGVSGPGKEAKQMENGMLVTDSAGKQLQRQLSSSSSYSGDISRHHNSTAELQKAEAKKEETWKLMEADKAQTGQVKLSVYWDYMKAIGLFISFLSIFLFMCNHVSALASNYWLSLWTDDPIVNGTQEHTKVRLSVYGALGISQGIAVFGYSMAVSIGGILASRCLHVDLLHSILRSPMSFFERTPSGNLVNRFSKELDTVDSMIPEVIKMFMGSLFNVIGACIVILLATPIAAIIIFPLGLIYFFVQRFYVASSRQLKRLESVSRSPVYSHFNETLLGVSVIRAFEEQERFIHQSDLKVDENQKAYYPSIVANRWLAVRLECVGNCIVLFAALFAVISRHSLSAGLVGLSVSYSLQVTTYLNWLVRMSSEMETNIVAVERLKEYSETEKEAPWQIQETAPPSSWPQVGRVEFRNYCLRYREDLDFVLRHINVTINGGEKVGIVGRTGAGKSSLTLGLFRINESAEGEIIIDGINIAKIGLHDLRFKITIIPQDPVLFSGSLRMNLDPFSQYSDEEVWTSLELAHLKDFVSALPDKLDHECAEGGENLSVGQRQLVCLARALLRKTKILVLDEATAAVDLETDDLIQSTIRTQFEDCTVLTIAHRLNTIMDYTRVIVLDKGEIQEYGAPSDLLQQRGLFYSMAKDAGLV
B6: halB 36-127 (Haloferax volcanii, UniProt D4GX31); sequence looked up; chain GGAVVVDEGETVDGDLDAVGGTVVVAGTVTGDVSATAGTVLVTETGVVNGNLDAVAGSATLEGSVGGSLAYDAATATVDAAAVVDGGVRQVD
B7: OsCATC (Oryza sativa, UniProt Q10S82); sequence looked up; chain MDPYKHRPSSSFNGPLWSTNSGAPVWNNNNSLTVGSRGPILLEDYHLVEKLANFDRERIPERVVHARGASAKGFFEVTHDITHLTCADFLRAPGVQTPVIVRFSTVIHERGSPETLRDPRGFAIKFYTREGNWDLVGNNFPVFFIRDGMKFPDMVHSLKPNPKSHVQENWRILDFFSHHPESLHMFTFLFDDIGIPADYRHMDGSGVNTYTLVNRAGKSHYVKFHWKPTCGVKSLLDDEAVTVGGTNHSHATQDLYDSIAAGNFPEWKLFIQTIDPDHEDRFDFDPLDVTKTWPEDIVPLQPVGRMVLNRNIDNFFSENEQLAFCPGIIVPGIYYSDDKLLQTRIFSYSDTQRHRLGPNYLLLPPNAPKCAHHNNHYDGFMNFMHRDEEVDYFPSRYDPAKHAPRYPIPSATLTGRREKVVIAKENNFKQPGERYRSWDPARQDRFIKRWIDALSDPRLTHEIRSIWLSYWSQADRSLGQKLASRLSAKPSM
B8: SPOP S96R (Homo sapiens, UniProt O43791); sequence looked up; chain MSRVPSPPPPAEMSSGPVAESWCYTQIKVVKFSYMWTINNFSFCREEMGEVIKSSTFSSGANDKLKWCLRVNPKGLDEESKDYLSLYLLLVSCPKREVRAKFKFSILNAKGEETKAMESQRAYRFVQGKDWGFKKFIRRDFLLDEANGLLPDDKLTLFCEVSVVQDSVNISGQNTMNMVKVPECRLADELGGLWENSRFTDCCLCVAGQEFQAHKAILAARSPVFSAMFEHEMEESKKNRVEINDVEPEVFKEMMCFIYTGKAPNLDKMADDLLAAADKYALERLKVMCEDALCSNLSVENAAEILILADLHSADQLKTQAVDFINYHASDVLETSGWKSMVVSHPHLVAEAYRSLASAQCPFLGPPRKRLKQS
B9: TNKS 1026-1092 (Homo sapiens, UniProt O95271); sequence looked up; chain GLDMNISQFLKSLGLEHLRDIFETEQITLDVLADMGHEELKEIGINAYGHRHKLIKGVERLLGGQQG

Sequence | method | form | setting | together with | binding
B1 (spo0J K252A/K259A) | SEC-MALS |  |  |  | binds
B2 (VPH1/STV1 chimera 1-123) | SEC |  |  |  | binds
B3 (TOP2 C180A/C731A/Q1135C) | FRET or BRET |  |  | ADP, ATP, ADPNP | binds
B4 (Pnma1) | size-exclusion chromatography, negative-stain TEM |  |  |  | binds
B5 (ABCC1 P1120F) | SEC |  |  |  | binds
B6 (halB 36-127) | negative-stain TEM |  |  |  | binds
B7 (OsCATC) | cross-linking |  |  |  | binds
SQQPYNNQGQQQNME (TAF15 79-93 (Homo sapiens, UniProt Q92804); N-acetyl/C-amide; sequence looked up) | negative-stain TEM | peptide | peptide |  | binds
B8 (SPOP S96R) | negative-stain TEM |  |  |  | binds
B9 (TNKS 1026-1092) | SEC |  |  |  | binds

For quick reference, copied from above:
Sequence | method | form | setting | together with | binding
B6 (halB 36-127) | negative-stain TEM |  |  |  | binds
